Measurements from different studies.
Protocols differ between the studies behind these lines. ± gives the spread as reported.

SMILES | system | setting | tissue uptake [%ID/g]
CCCC[C@H](NC(=O)CCCCCCCNC(=O)c1ccc(NN)nc1)C(=O)N[C@H]1CC(=O)NCCCC[C@@H](C(N)=O)NC(=O)[C@H](Cc2c[nH]c3ccccc23)NC(=O)[C@H](CCCNC(=N)N)NC(=O)[C@@H](Cc2ccccc2)NC(=O)[C@H](Cc2c[nH]cn2)NC1=O [technetium-99m labelled] | C57 mouse, B16/F1 melanoma, pancreas | 2 h, together with: L-lysine 12 mg co-injected | 0.06 ± 0.02
CSCC[C@H](NC(=O)[C@H](CC(C)C)NC(=O)[C@H](Cc1c[nH]cn1)NC(=O)CNC(=O)[C@@H](NC(=O)[C@H](C)NC(=O)[C@H](Cc1c[nH]c2ccccc12)NC(=O)[C@H](CCC(N)=O)NC(=O)CCCCCNC(=O)CNC(=O)CNC(=O)CNC(=O)CSC(C)=O)C(C)C)C(N)=O [technetium-99m labelled] | nude mouse, PC-3 xenograft, stomach | 90 min | 0.65 ± 0.22
N=C(N)NCCC[C@@H]1NC(=O)[C@H](CCCCNC(=O)CC[C@H](NC(=O)CCOCCOCCOCCOCCNC(=O)CC[C@H](NC(=O)CN2CCN(CC(=O)O)CCN(CC(=O)O)CCN(CC(=O)O)CC2)C(=O)NCCOCCOCCOCCOCCC(=O)N[C@@H](CCC(=O)NCCCC[C@@H]2NC(=O)[C@@H](Cc3ccccc3)NC(=O)[C@H](CC(=O)O)NC(=O)CNC(=O)[C@H](CCCNC(=N)N)NC2=O)C(=O)NCCCC[C@@H]2NC(=O)[C@@H](Cc3ccccc3)NC(=O)[C@H](CC(=O)O)NC(=O)CNC(=O)[C@H](CCCNC(=N)N)NC2=O)C(=O)NCCCC[C@@H]2NC(=O)[C@@H](Cc3ccccc3)NC(=O)[C@H](CC(=O)O)NC(=O)CNC(=O)[C@H](CCCNC(=N)N)NC2=O)NC(=O)[C@@H](Cc2ccccc2)NC(=O)[C@H](CC(=O)O)NC(=O)CNC1=O [indium-111 labelled] | athymic nude mice, female, U-87 MG glioma xenograft, spleen | intravenous, 3 µCi, 4 h | 1.98 ± 0.97
CSCC[C@H](NC(=O)[C@H](CC(C)C)NC(=O)[C@H](Cc1c[nH]cn1)NC(=O)CNC(=O)[C@@H](NC(=O)[C@H](C)NC(=O)[C@H](Cc1c[nH]c2ccccc12)NC(=O)[C@H](CCC(N)=O)NC(=O)CNC(=O)[C@H](CO)NC(=O)CNC(=O)CCCCCCCNC(=O)CCC(=O)Nc1ccc(CNC23CNCCNCC(N)(CNCCNC2)CNCCNC3)cc1)C(C)C)C(N)=O [copper-64 labelled] | female SCID mice, PC-3 xenograft, lung | intravenous, 0.6 MBq, 24 h | 0.216 ± 0.014
C[C@@H](O)[C@H](NC(=O)[C@@H]1CSSC[C@H](NC(=O)[C@@H](Cc2ccccc2)NC(=O)CN2CCCN3CCN(CCCN(CP(=O)(O)O)CC3)CC2)C(=O)N[C@@H](Cc2ccc(O)cc2)C(=O)N[C@H](Cc2c[nH]c3ccccc23)C(=O)N[C@@H](CCCCN)C(=O)N[C@@H]([C@@H](C)O)C(=O)N1)C(=O)O [copper-64 labelled] | Lewis rat, male, tumour-bearing, pancreas | injection, 4 h, together with: Y3-TATE 200 µg co-injected | 0.6 ± 0.04
CCCC[C@H](NC(=O)COCCOCCNC(=O)c1ccc(NN)nc1)C(=O)N[C@H]1CC(=O)NCCCC[C@@H](C(N)=O)NC(=O)[C@H](Cc2c[nH]c3ccccc23)NC(=O)[C@H](CCCNC(=N)N)NC(=O)[C@@H](Cc2ccccc2)NC(=O)[C@H](Cc2c[nH]cn2)NC1=O [technetium-99m labelled] | C57 mouse, female, B16/F1 melanoma, liver | intravenous, 0.037 MBq, 2 h | 0.33 ± 0.03
N=C(N)NCCC[C@@H]1NC(=O)[C@H](CCCCNC(=O)CCOCCOCCOCCOCCNC(=O)CC[C@H](NC(=O)CCOCCOCCOCCOCCNC(=O)CC[C@H](NC(=O)CN2CCN(CC(=O)O)CCN(CC(=O)O)CCN(CC(=O)O)CC2)C(=O)NCCOCCOCCOCCOCCC(=O)N[C@@H](CCC(=O)NCCOCCOCCOCCOCCC(=O)NCCCC[C@@H]2NC(=O)[C@@H](Cc3ccccc3)NC(=O)[C@H](CC(=O)O)NC(=O)CNC(=O)[C@H](CCCNC(=N)N)NC2=O)C(=O)NCCOCCOCCOCCOCCC(=O)NCCCC[C@@H]2NC(=O)[C@@H](Cc3ccccc3)NC(=O)[C@H](CC(=O)O)NC(=O)CNC(=O)[C@H](CCCNC(=N)N)NC2=O)C(=O)NCCOCCOCCOCCOCCC(=O)NCCCC[C@@H]2NC(=O)[C@@H](Cc3ccccc3)NC(=O)[C@H](CC(=O)O)NC(=O)CNC(=O)[C@H](CCCNC(=N)N)NC2=O)NC(=O)[C@@H](Cc2ccccc2)NC(=O)[C@H](CC(=O)O)NC(=O)CNC1=O [indium-111 labelled] | female athymic nude mice, spleen | intravenous, 3 µCi, 1 h, U-87 MG glioma xenograft | 2.1
N=C(N)NCCC[C@@H]1NC(=O)[C@H](CCCCNC(=O)CNC(=O)CNC(=O)CNC(=O)CC[C@H](NC(=O)c2ccc(NN=Cc3ccccc3S(=O)(=O)O)nc2)C(=O)NCC(=O)NCC(=O)NCC(=O)NCCCC[C@@H]2NC(=O)[C@@H](Cc3ccccc3)NC(=O)[C@H](CC(=O)O)NC(=O)CNC(=O)[C@H](CCCNC(=N)N)NC2=O)NC(=O)[C@@H](Cc2ccccc2)NC(=O)[C@H](CC(=O)O)NC(=O)CNC1=O [technetium-99m labelled] | athymic nu/nu mouse, female, MDA-MB-435 xenograft, liver | intravenous, 120 min | 2.68 ± 0.46
N=C(N)NCCC[C@@H]1NC(=O)[C@H](CCCCNC(=O)CCOCCOCCOCCOCCNC(=O)CN2CCN(CC(=O)O)CCN(CC(=O)O)CCN(CC(=O)O)CC2)NC(=O)[C@@H](Cc2ccccc2)NC(=O)[C@H](CC(=O)O)NC(=O)CNC1=O [indium-111 labelled] | female athymic nude mice, eyes | intravenous, 3 µCi, 24 h, U-87 MG glioma xenograft | 0.14 ± 0.01
N=C(N)NCCC[C@@H]1NC(=O)[C@H](CC(=O)NC23CNCCNCC(N)(CNCCNC2)CNCCNC3)NC(=O)[C@@H](Cc2ccccc2)NC(=O)[C@H](CC(=O)O)NC(=O)CNC1=O [copper-64 labelled] | Nu/Nu mouse, male, tumour-bearing, muscle | intravenous, 10 µCi, 4 h | 0.13 ± 0.04
CCCC[C@H](NC(=O)CNC(=O)CNC(=O)c1ccc(NN)nc1)C(=O)N[C@H]1CC(=O)NCCCC[C@@H](C(N)=O)NC(=O)[C@H](Cc2c[nH]c3ccccc23)NC(=O)[C@H](CCCNC(=N)N)NC(=O)[C@@H](Cc2ccccc2)NC(=O)[C@H](Cc2c[nH]cn2)NC1=O [technetium-99m labelled] | C57 mouse, B16/F1 melanoma-bearing, pancreas | intravenous, 4 h | 0.07 ± 0.03
N=C(N)NCCC[C@@H]1NC(=O)[C@H](CCCCNC(=O)CC[C@H](NC(=O)CCOCCOCCOCCOCCNC(=O)CN2CCN(CC(=O)O)CCN(CC(=O)O)CCN(CC(=O)O)CC2)C(=O)NCCCC[C@@H]2NC(=O)[C@@H](Cc3ccccc3)NC(=O)[C@H](CC(=O)O)NC(=O)CNC(=O)[C@H](CCCNC(=N)N)NC2=O)NC(=O)[C@@H](Cc2ccccc2)NC(=O)[C@H](CC(=O)O)NC(=O)CNC1=O [indium-111 labelled] | female athymic nude mice, lungs | intravenous, 3 µCi, 4 h, U-87 MG glioma xenograft | 1.52 ± 0.75

Excerpt of the above:
SMILES | system | setting | tissue uptake [%ID/g]
N=C(N)NCCC[C@@H]1NC(=O)[C@H](CCCCNC(=O)CNC(=O)CNC(=O)CNC(=O)CC[C@H](NC(=O)c2ccc(NN=Cc3ccccc3S(=O)(=O)O)nc2)C(=O)NCC(=O)NCC(=O)NCC(=O)NCCCC[C@@H]2NC(=O)[C@@H](Cc3ccccc3)NC(=O)[C@H](CC(=O)O)NC(=O)CNC(=O)[C@H](CCCNC(=N)N)NC2=O)NC(=O)[C@@H](Cc2ccccc2)NC(=O)[C@H](CC(=O)O)NC(=O)CNC1=O [technetium-99m labelled] | athymic nu/nu mouse, female, MDA-MB-435 xenograft, liver | intravenous, 120 min | 2.68 ± 0.46
